# Published values collected from several papers.
# “And” joins repeats or separate records; there may be more than shown. ± marks the error that the study gave.
# CDK19: Cyclin-dependent kinase 19 (CDK19, Homo sapiens, UniProt Q9BWU1)
# uncharacterized protein: uncharacterized protein (Anopheles coluzzii, UniProt A0A6E8VQK1)
# UDP-3-O-acyl-N-acetylglucosamine deacetylase C40S: UDP-3-O-acyl-N-acetylglucosamine deacetylase (Pseudomonas aeruginosa, UniProt P47205, C40S)
Compound,target,assay,test system,conditions,how to read,measurement,result
Nc1nc2c(ncn2[C@@H]2O[C@H](COP(=O)(O)OP(=O)(O)OP(=O)(O)O)[C@@H](O)[C@H]2O)c(=O)[nH]1,"matB (Rhodopseudomonas palustris, UniProt Q6ND88, C106A/K488A/Q457C/R286C)","binding, intrinsic fluorescence",,"250 µM, 1 µM matB, 10 mM MgCl2",,fluorescence ratio F+/F-,1.03
Cc1ccc(C(=O)Nc2ccnc(S(N)(=O)=O)c2)c(N2CCCC(F)(F)CC2)n1,"SCN4A (Homo sapiens, UniProt P35499)",automated patch clamp,,,baseline: IC50 Nav1.4 over IC50 Nav1.8,selectivity ratio,~2000 fold and 1780 fold
Cc1nn(C)cc1-c1nc2c(N3CCN(Cc4ccc(Cl)cc4)CC3)c(Cl)cnc2[nH]1,CDK19,"binding, KINOMEscan",,1 µM,,remaining binding,100%
COc1cc(N)c(Cl)cc1C(=O)NC1CN2CCC1CC2 (stereo not drawn),"Probable G-protein coupled receptor 149 (GPR149, Homo sapiens, UniProt Q86SP6)","β-arrestin recruitment, TANGO luminescence, item: GPR149",,concentration not given,baseline: basal luminescence,log2 fold change,-0.113
CC(CCn1ccc(-c2ccc(-c3cn(CC4CC4)nn3)cc2)cc1=O)(C(=O)NO)S(C)(=O)=O (stereo not drawn),"UDP-3-O-acyl-N-acetylglucosamine deacetylase (Pseudomonas aeruginosa, UniProt P47205)",fluorescence,,37 °C,,residence time,67 min and 66.9 min
Nc1ncnc2c1ncn2[C@@H]1O[C@H](COP(=O)(O)OP(=O)(O)NP(=O)(O)O)[C@@H](O)[C@H]1O,"Cell cycle histidine kinase CckA, cytoplasmic region (Caulobacter vibrioides, UniProt Q9X688)",isothermal titration calorimetry,Caulobacter crescentus,"concentration not given, 12 °C, with: without c-di-GMP",,binding enthalpy (ΔH),-1.4 kcal/mol
CC(C)C[C@H](NC(=O)[C@H](Cc1ccccc1)NC(=O)[C@@H]1CCCN1C(=O)[C@H](CCCNC(=N)N)NC(=O)[C@H](CCC(=O)O)NC(=O)[C@@H]1CCCN1C(=O)[C@H](CO)NC(=O)[C@@H](N)CCC(=O)O)C(=O)O,"Epithelial sodium channel subunit alpha (Homo sapiens, UniProt P37088)","binding, bio-layer interferometry",,,,koff,0.354 s⁻¹
COc1cc(Nc2ncc(F)c(Nc3ccc4c(n3)NC(=O)C(C)(C)O4)n2)cc(OC)c1OC,"PKMYT1 (Homo sapiens, UniProt Q99640)",KINOMEscan,,10 µM,,inhibition,30%
O=C(O)COP(=O)(O)O,"TPI1 (Saccharomyces cerevisiae, UniProt P00942, S211G/Y208T)","enzyme activity, competitive inhibitor, GPDH/NADH-coupled",,"pH 6.4, 25 °C, ionic strength 0.1 NaCl, with: glyceraldehyde 3-phosphate substrate",baseline: mutant over wild type,Ki ratio,15
[2H]c1c([2H])c([C@]2([2H])CCCN2C(=O)C(C)(C)Oc2ccc3cn[nH]c3c2)c([2H])c([2H])c1C([2H])([2H])[2H],"ULK3 (Homo sapiens, UniProt Q6PHR2)",KINOMEscan,,1 µM,baseline: DMSO control,remaining binding,86%
O=C(Nc1cccnn1)N1CCC(=Cc2cccc(Oc3ccc(C(F)(F)F)cn3)c2)CC1,"CHRM3 (Homo sapiens, UniProt P20309)",binding,,"10 µM, with: [3H]N-methylscopolamine",,inhibition,8%
N[C@@H](Cc1ccc(O)c(I)c1)C(=O)O,"Iodotyrosine deiodinase (Haliscomenobacter hydrossis, UniProt F4KU78, R38E)",,,,baseline: wild type over mutant,affinity loss,78 fold
CCCCCCCCCCCCCC[N+](C)(C)C,"Sodium channel protein type 4 alpha, BTX-activated (Oryctolagus cuniculus, UniProt G1SLL9)",,,,,off rate,41 s⁻¹
CC1(C)[C@H](C(=O)O[C@H](C#N)c2cccc(Oc3ccccc3)c2)[C@@H]1C=C(Br)Br,uncharacterized protein,"enzyme activity, inhibitor",Sf9 cell homogenate,"0.2294 µM, 0.1667 h, with: α-naphthyl acetate substrate",baseline: no inhibitor,remaining activity,98.6%
CCN(CC)CCCC[C@H](NC(=O)[C@H](CC(C)C)NC(=O)[C@H](C)NC(=O)[C@H](Cc1ccccc1)NC(=O)c1ccc(C(C)(C)C)cc1)C(=O)N[C@@H](CO)C(=O)OC,"CHRM1 (Homo sapiens, UniProt P11229)","antagonist, radioligand binding",,10 µM,baseline: control binding,specific binding,99%
O=C(c1ccc(Cl)cc1)N1CCN2C(=O)N(OC(=O)N3CCOc4ccccc43)C(=O)C2C1 (stereo not drawn),"Complement C1r subcomponent-like protein (C1RL, Homo sapiens, UniProt Q9NZP8)",MS-based ABPP,SW-620 conditioned medium,"10 µM, 1 h, 37 °C","baseline: compound over DMSO, lower = more inhibition",median protein ratio,1.05
c1cncc([C@@H]2CCCCN2)c1,"Chrnd/Chrna1/Chrne (Mus musculus, UniProt P02716+P04756+P20782)",single-channel kinetics,,wild-type receptor,,resting-state koff,7460 s⁻¹
COc1ccc(N2C(=O)N(c3c(C)cccc3Cl)Cc3cnc(Nc4ccc(C5CCN(C)CC5)cc4OC)nc32)nc1,"PRKD2 (Homo sapiens, UniProt Q9BZL6)",kinase activity,,0.5 µM,,inhibition,30%
O=P(O)(O)OC[C@H]1C[C@](O)(CO)[C@@H](O)[C@H](O)[C@@H]1O,"2-epi-valiolone synthase (Actinosynnema mirum, UniProt C6WFL3)",phosphate release,,100 µM,,apparent Vmax,1.8 ± 0.2 µM/min
CNC(=O)Oc1cccc2c1OC(C)(C)O2,uncharacterized protein,"enzyme activity, inhibitor",Sf9 cell homogenate,"0.004651 µM, 0.1667 h, with: α-naphthyl acetate substrate",baseline: no inhibitor,remaining activity,98.6%
CC(C)(C)c1ccc(OP(=O)(Oc2ccc(C(C)(C)C)cc2)Oc2ccc(C(C)(C)C)cc2)cc1,"Acylamino-acid-releasing enzyme (Apeh, Mus musculus, UniProt Q8R146)",,"mouse, blood",,,ED50,> 240 mg/kg
O=C(Cc1cccs1)N[C@@H]1C(=O)N2C(C(=O)O)=C(/C=C/c3ccc([N+](=O)[O-])cc3[N+](=O)[O-])CS[C@H]12,"blaNDM-1 (Klebsiella pneumoniae, UniProt C7C422, C208H)","hydrolysis, substrate",,,,Km,> 20 µM
Cc1cc(-c2nsc(=O)o2)c(S(C)(=O)=O)s1,"PSMB7 (Homo sapiens, UniProt Q99436)",irreversible inhibitor,human PA28-activated proteasome,,,kobs/[I],0.47 M⁻¹ s⁻¹
CN(C)CCNc1nc2cc(O)ccc2c2c1C(=O)c1ccccc1-2.Cl.Cl,"Protein transport protein Sec61 subunit alpha isoform 1 (Homo sapiens, UniProt P61619)",reporter gene,HEK293 reporter-transfected,"6 h, CD4 signal peptide",baseline: FLuc over RLuc,FLuc/RLuc ratio,0.28 and 0.248 and 0.267
CO/N=C1\C[C@]2(C[C@@H]3C[C@@H](C/C=C(\C)C[C@@H](C)/C=C/C=C4\CO[C@@H]5[C@H](O)C(C)=C[C@@H](C(=O)O3)[C@]45O)O2)O[C@H](/C(C)=C/C(C)C)[C@H]1C,"Nuclear receptor subfamily 1 group I member 3 (Homo sapiens, UniProt Q14994)",,cells,concentration not given,,activity,inactive
C[N+](C)(C)CCOP(=O)(O)O,SAR11_0797 protein (Candidatus Pelagibacter ubique),isothermal titration calorimetry,,concentration not given,,binding,no binding
NC[C@H](NC(=O)c1ccc(C#Cc2ccccc2)cc1)C(=O)NO,UDP-3-O-acyl-N-acetylglucosamine deacetylase C40S,ITC,,"concentration not given, 298 K",,-TΔS of binding,-9.14 kcal/mol
O=C(Nc1cnccc1Cl)N1CCN(Cc2ccc3c(c2)OC(F)(F)O3)CC1,"PTGER3 (Homo sapiens, UniProt P43115)","radioligand binding, inhibitor",,"50 µM, human, with: [3H]prostaglandin E2",,inhibition,16%
CC[C@H](C)[C@H](NC(=O)CNC(=O)[C@@H](N)CCCCN)C(=O)N[C@@H](CC(C)C)C(=O)N[C@@H](CCCCN)C(=O)N[C@@H](CCCNC(=N)N)C(=O)N[C@@H](CCC(=O)O)C(=O)N[C@@H](CCCCN)C(=O)N[C@@H](CCCNC(=N)N)C(=O)N[C@@H](CC(C)C)C(=O)N[C@@H](CCCNC(=N)N)C(=O)N[C@@H](CCCNC(=N)N)C(=O)N[C@@H](CCCCN)C(=O)N[C@@H](CC(N)=O)C(=O)N[C@H](C(=O)N[C@@H](Cc1c[nH]cn1)C(=O)N[C@@H](Cc1c[nH]c2ccccc12)C(=O)N1CCC[C@H]1C(=O)N[C@@H](CCC(=O)O)C(=O)N[C@@H](CCC(=O)O)C(=O)NCC(=O)N[C@@H](CCCCN)C(=O)N[C@@H](CC(C)C)C(=O)N[C@@H](CCCNC(=N)N)C(=O)N[C@@H](CCC(=O)O)C(=O)N[C@@H](Cc1ccc(O)cc1)C(=O)N[C@@H](Cc1ccccc1)C(=O)N[C@@H](Cc1ccc(O)cc1)C(=O)N[C@@H](Cc1ccccc1)C(=O)N[C@@H](CCC(=O)O)C(=O)N[C@@H](CC(C)C)C(=O)N[C@@H](CC(=O)O)C(=O)N[C@@H](CCC(=O)O)C(=O)N[C@@H](C)C(=O)N[C@@H](CCC(=O)O)C(=O)N[C@@H](CCCNC(=N)N)C(=O)N[C@H](C(=O)N[C@@H](CC(N)=O)C(=O)N[C@H](C(=O)O)C(C)C)C(C)C)C(C)C,"PPP1CA (Homo sapiens, UniProt P62136)",ITC,,"concentration not given, 25 °C, PP1α 7-330",,ΔG of binding,-11.5 ± 0.1 kcal/mol
COc1ncccc1-c1cnn2ccc(N3CCN(C(=O)OC(C)C)CC3)nc12,CDK19,KINOMEscan binding,,1 µM,baseline: untreated control,remaining binding,60%
C[C@@H](O)[C@H](NC(=O)c1ccc(C#Cc2ccccc2)cc1)C(=O)NO,UDP-3-O-acyl-N-acetylglucosamine deacetylase C40S,isothermal titration calorimetry,,"concentration not given, 298 K, untagged protein, averaged",,entropy change (ΔS),0.0171 kcal/mol/K
C[C@H]1CN(c2n[nH]c3nc(N[C@H]4CC[C@H](NS(=O)(=O)CCC(F)(F)F)CC4)ncc23)CCO1,"MYLK (Homo sapiens, UniProt Q15746)","inhibitor, Kinobeads competition profiling",,0.8 µM,baseline: vehicle,relative abundance,1.02
CN1CCN(c2cc(-c3ccncc3)c(-c3ccc4ccccc4c3)nn2)CC1,"ADRB3 (Homo sapiens, UniProt P13945)","agonist, FLIPR",,12.5 µM,,activation,-0.6%
CC(C)[C@@H]1NC(=O)[C@H](C)OC(=O)[C@@H](C(C)C)NC(=O)[C@@H](C(C)C)OC(=O)[C@H](C(C)C)NC(=O)[C@H](C)OC(=O)[C@@H](C(C)C)NC(=O)[C@@H](C(C)C)OC(=O)[C@H](C(C)C)NC(=O)[C@H](C)OC(=O)[C@@H](C(C)C)NC(=O)[C@@H](C(C)C)OC1=O,"Metalloendopeptidase OMA1, mitochondrial (OMA1, Homo sapiens, UniProt Q96E52)",Western blot,"HEK293T, OMA1 siRNA knockdown",concentration not given,,full-length Luke-S1 level,28.8 ± 9.1%
CN(C(=O)n1cnc(-c2ccc[n+]([O-])c2)c1)C1CCCCC1,"LTB4R (Homo sapiens, UniProt Q15722)",radioligand binding,,"50 µM, with: [3H]LTB4",,inhibition,-11%
O=C([O-])c1ccccc1-c1c2cc(Br)c(=O)cc-2oc2[c]([Hg+])c([O-])c(Br)cc12.[Na+].[Na+].[OH-],"DCLRE1A (Homo sapiens, UniProt Q6PJP8)","exonuclease activity, inhibitor, fluorescence HTS",,"10 µM, 80 min, with: 8 nM 5P-FQ substrate",baseline: high and low controls,remaining activity,16.3%

# For quick reference, copied from above:
Compound,target,assay,test system,conditions,how to read,measurement,result
O=P(O)(O)OC[C@H]1C[C@](O)(CO)[C@@H](O)[C@H](O)[C@@H]1O,"2-epi-valiolone synthase (Actinosynnema mirum, UniProt C6WFL3)",phosphate release,,100 µM,,apparent Vmax,1.8 ± 0.2 µM/min
Cc1nn(C)cc1-c1nc2c(N3CCN(Cc4ccc(Cl)cc4)CC3)c(Cl)cnc2[nH]1,CDK19,"binding, KINOMEscan",,1 µM,,remaining binding,100%
CC1(C)[C@H](C(=O)O[C@H](C#N)c2cccc(Oc3ccccc3)c2)[C@@H]1C=C(Br)Br,uncharacterized protein,"enzyme activity, inhibitor",Sf9 cell homogenate,"0.2294 µM, 0.1667 h, with: α-naphthyl acetate substrate",baseline: no inhibitor,remaining activity,98.6%
CC(CCn1ccc(-c2ccc(-c3cn(CC4CC4)nn3)cc2)cc1=O)(C(=O)NO)S(C)(=O)=O (stereo not drawn),"UDP-3-O-acyl-N-acetylglucosamine deacetylase (Pseudomonas aeruginosa, UniProt P47205)",fluorescence,,37 °C,,residence time,67 min and 66.9 min
O=C(Cc1cccs1)N[C@@H]1C(=O)N2C(C(=O)O)=C(/C=C/c3ccc([N+](=O)[O-])cc3[N+](=O)[O-])CS[C@H]12,"blaNDM-1 (Klebsiella pneumoniae, UniProt C7C422, C208H)","hydrolysis, substrate",,,,Km,> 20 µM
